Published values collected from several papers.
Every numbered part comes from another study and shows a few of its results, in no order.

Set 1
Target: RNA binding protein fox-1 homolog 2, RRM domain, GST-SBP tag (RBFOX2, Homo sapiens, UniProt O43251-10, residues 100-194)
Technique: RNA Bind-n-Seq
Form: RNA
Sample: in vitro
Tested at: 365 nM
Notes: natural RNA segment, single round, ends assumed
Relative to: no-protein control
Reading: higher = stronger binding
Shared flanks, not repeated: GGGAGUUCUACAGUCCGACGAUC … UGGAAUUCUCGGGUGCCAA
Residues (chain): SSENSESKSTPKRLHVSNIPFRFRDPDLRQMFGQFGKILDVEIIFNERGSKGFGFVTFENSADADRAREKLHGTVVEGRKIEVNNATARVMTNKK
| Oligonucleotide | RBNS enrichment (R) |
| --- | --- |
| CUCUGCUUCUCUCUGUCAGCGUCCUGCUGCUCUAGAAGACUGUCCGUGGAUGAGUUUAGUGUACAGACUUGUAAACAGCUGCCCCCUCUCUGCUCAGUCUAGUUCCCAGA | 0.366 |
| GGCCUUUCUCAGAAGACUGUAAUGUACCUGAAGUUUCUGAAAUAUUGCAAACCCACAGAGUUUAGGCUGGUGCUGCCAAAAAGAAAAGCAACAUAGAGUUUAAGUAUCCA | 0.672 |
| GGUAAUAAAUAGGUUACUUACCAUCAUAUGUUCAUAUAGAUGAAACUAAUUUUUGGCUUAAGUCAGAACAACUGGCCAAAAUUGAAGUCAUAUUUGAGGGGGGAAAUGGC | 0.637 |
| UUCACCGUCUAGCUUCCCCAGGGUAGGAAAGGUCUCCCACAUUAUGCAAUAAUAAAAUCAGCAUCUGGGUCUUUGCAGCUGUCAGUUGUUCUUUAAACUCUAGGAUCCAU | 0.697 |
| ACUUGGCGCAAGUGACUUGUGCCUCCUUGUCUGUCCUUUGUCAGCACAGGUGCAGGCAAACCCUUCCAGCUGGGUUAAUUGCCGUUUAUGGUUUACUCACUUAGGGAAAG | 0.299 |
| CUCAGUUAUUGGCUUCCAUUUUUUAUGAUCUUUCAACUAUAACAAUUAUGAUAGAAAUCGAUUUAACACAAUCAGUUAUGGGCUUCCAUUUUCAAAUAUCUUUUCAACUG | 0.43 |
| AGUGGGGGCCCCUCAUCUAGAUCAUGAUAUGCCAGUUUCCAAGACAUCUUCUGAAGGCCCUCACUGCCUCAAGCCCUCUCCCCUCCUCGCAGGGCAGGCUUGGUGCACUG | 0.792 |
| CCUGUACAUACAUUGUAUAGGCCAUCUGUAAAUAUCCCAGAGAACAAUCACUAUUCUUAAGCACUUUGAAAAUAUUUCUAUGUAAAUUAUUGUAAACUUUUUCAAUGGUU | 0.443 |
| UUGAACAUCAAGAUCAAAUUAGUGGAUGCUGUCGUCUCUUAAAGCUGGUUUUAUUUGUCUCUGGUCCACAAGAGUGUUUUGGCAACUGCCUGGAGCUUGCAUGUUGGGAC | 7.37 |
| CAGUAAUUUGAAAAUGAGAUAUUAGGAAAAACCAAUUCUUCUUAAAUUUAGUUCAUCUUUCUUUAAAAGAACAUUAAAUGUAACCAUUUUGUCAGAUCCAUGUAUUUUGG | 0.44 |
| GGCUCACCUUGAUGGAGGGACUGGGGUGGGUGGGACUACCGCCCCGCCCACCUGUCUGCACUCCUGUCACUUGUAGGCCUGGCUGACUUACAGAUUUUUCCUUCCCCAGC | 0.239 |
| ACUUCAAAAGACAGGAUUGACAAAUUCAGUCAAUACUAUUUUAGAGAUUCUGUUAGAUGAUAUGUCUGACCCAAAUUUAAUCCAUAAUAAAAAAAAAUGGGAGAUUGUUU | 0.349 |

Set 2
Target: Fragile X messenger ribonucleoprotein 1, C-terminal low-complexity region (Fmr1, Mus musculus, UniProt P35922)
Technique: RNA Bind-n-Seq
Form: RNA
Sample: in vitro
Tested at: 200 nM
Notes: whole 134-nt RNA, ends assumed
Added: 150 mM KCl
Relative to: input library
Reading: higher = stronger binding
Shared flanks, not repeated: GGGAGUUCUACAGUCCGACGAUC … UGGAAUUCUCGGGUGUCAAGG
| Oligonucleotide | log2 enrichment |
| --- | --- |
| GCAGGAAGUAAAAACAAAUGGAAAUGCUUCGGAUAGUGGCAGGGGUGGGGGUUGCUAAGGAAAGGGUGGGACGGGAGUGGGUAAAGAGUU | -0.00282 |
| CACAGACAACACGCACCCACACAGACACAGAGGGAAGGGGUUGGGAUGGGGACAGGGUGAAAAGCAGGGCGGGGUAGGACCCCAGCCCCU | 1.06 |
| CACAGACAACACGCACCCACACAGACACAGAGGGAAGGGGUUGGGAUGGGGACAGGGUGCACCGCAGGGCGGGGUAGGACCCCAGCCCCU | 1.36 |
| GUCCUGUGCUACACAUCGUAUGUACCGAAUCGGGAAAAAGGGGAAAAAGGAAAAAGGGAAAGUAUUAUGUUACGCCGUUCGGAUCUGCAC | -0.166 |
| CACAGACAACACGCACCCACACAGAUACAGAGGGAAGGGGUUGGGAUGGGGACAGGGUGCACAGCAGGGCGGGGUAGGACCCCAGCCCCU | 1.23 |
| CUCAAGUCCUGUGCUACACAUCGUAUGUACCGAAUCGGUUUUUGGUUUGGAGGAAAGUAUUAUGUUACGCCGUUCGGAUCUGCACUUCCA | -0.426 |
| UUCAUUCCCAAGGGAGGCCAUGUCUGGAGAUAGACCUUGAAUUUAAUAAAUUUUAGGCACUAUACCAUUUCAGUGGAGAAAAUUGUUGGG | -1.78 |
| UGGCCCUGGUGGCAUGCGGGGAGGAAGAGGUGGCCUCAUGGAUCGUGGUGGUCCCGGUGGCAUGUUCAGAGGUGGCCGUGGUGGAGACAG | -0.199 |
| CAAGUCCUGUGCUACACAUCGUAUGUACCGAAUCGGCCCCGGGCCCCGGGCCCCGGAAAGUAUUAUGUUACGCCGUUCGGAUCUGCACUU | -0.615 |
| UGGCCCUGGUGGCAUGCGGGGAGGAAGAGGUGGCCUCAUGGAUCGUGGUGGUCACGGUGGAAUGUUCAGAGGUGGCCGUGGUGGAGACAG | -0.231 |

Set 3
Target: Histone acetyltransferase KAT6A, winged helix 1, GST fusion (KAT6A, Homo sapiens, UniProt Q92794, residues 1-85)
Technique: protein binding microarray
Form: double-stranded DNA, one strand shown
Sample: in vitro
Tested at: not given
Notes: 8-mer, flanks averaged, mean of 2 arrays, mostly near background
Relative to: not given
Reading: higher = stronger binding
Construct (chain): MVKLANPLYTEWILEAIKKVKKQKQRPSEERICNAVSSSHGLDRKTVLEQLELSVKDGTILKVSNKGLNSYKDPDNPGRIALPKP
| Oligonucleotide | E-score |
| --- | --- |
| CCCGGGAC | 0.309 |
| ATAGTATA | -0.0539 |
| ACCTCATG | -0.148 |
| AACTTGCA | -0.196 |
| AGGAATAT | -0.0671 |
| GTACGGAC | 0.185 |
| GTTCGCAA | 0.0724 |
| CATTTAAG | -0.295 |
| CCGGCAGC | 0.389 |
| ACGCGCAT | 0.364 |
| GATCGGGA | 0.136 |
| CAAACATC | -0.188 |
| CCCACTTC | -0.141 |
| AATACCGA | 0.0864 |
| CATAGCCG | 0.262 |
| ATATCGGC | 0.129 |

Set 4
Target: PABPC1L2, full length, GST fusion (mouse, UniProt A0ABA7IW68)
Technique: RNAcompete
Form: RNA
Sample: in vitro
Tested at: 20 nM
Notes: 7-mer, probes averaged, single round
Relative to: mean of 7-mers
Reading: higher = stronger binding
Target sequence (chain): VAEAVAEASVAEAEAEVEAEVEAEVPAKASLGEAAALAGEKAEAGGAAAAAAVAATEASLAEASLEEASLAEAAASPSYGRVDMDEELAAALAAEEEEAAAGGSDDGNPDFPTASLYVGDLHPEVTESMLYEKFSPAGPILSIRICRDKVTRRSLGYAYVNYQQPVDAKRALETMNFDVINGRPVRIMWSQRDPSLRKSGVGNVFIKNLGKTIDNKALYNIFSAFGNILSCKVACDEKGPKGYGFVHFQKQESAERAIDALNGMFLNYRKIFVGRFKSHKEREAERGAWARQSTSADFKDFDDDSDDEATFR
| Oligonucleotide | 7-mer Z-score |
| --- | --- |
| CGCAUAC | -0.237 |
| AGUUAGA | -0.0428 |
| CGCAGAA | 0.283 |
| UCCUUUC | -0.458 |
| GCGAACA | 0.216 |
| UGGUAAA | 0.593 |
| UGCCGUU | -0.373 |
| UGCUAGU | -0.324 |
| GUUAAUA | 0.00979 |
| CUCAAGC | -0.278 |
| AGCUAUA | -0.146 |
| AACCAAA | 1.65 |
| UCAUACU | -0.324 |
| GCAUUCC | -0.309 |
| GGCAUGG | 0.204 |
| AAAUCAA | 1.06 |

Set 5
Target: RING finger protein unkempt homolog, zinc fingers 1-6, GST-SBP tag (UNK, Homo sapiens, UniProt Q9C0B0, residues 30-357)
UniProt Q9C0B0, sequence (30-357, looked up): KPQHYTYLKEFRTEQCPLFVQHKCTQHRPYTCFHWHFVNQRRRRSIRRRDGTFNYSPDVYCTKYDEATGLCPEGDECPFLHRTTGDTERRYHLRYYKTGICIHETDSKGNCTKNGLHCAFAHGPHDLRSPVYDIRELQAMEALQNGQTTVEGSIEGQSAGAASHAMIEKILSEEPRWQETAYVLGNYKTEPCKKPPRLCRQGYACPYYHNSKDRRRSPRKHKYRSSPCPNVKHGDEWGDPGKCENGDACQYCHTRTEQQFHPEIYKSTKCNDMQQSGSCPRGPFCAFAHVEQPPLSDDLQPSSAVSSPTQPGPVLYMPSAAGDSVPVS
Technique: RNA Bind-n-Seq
Form: RNA
Sample: in vitro
Tested at: not given
Notes: RNA with constant flanks, human-mouse chimeric sites, ends assumed
Relative to: input RNA pool
Reading: higher = stronger binding
Shared flanks, not repeated: GGGAGUUCUACAGUCCGACGAUC … CAACAGAGGAUUGAGCAUCA
| Oligonucleotide | bound/input enrichment |
| --- | --- |
| CCCCAAUACCAUUUGCAGGUCUGGAACCUGCAUUCUUUUUUUAAAAAACAUGUAUACAUUUUAGGGCUGUAGAUUUACUUUCCUAUUUUUGUUUUUCAUUGCUGACUUUUGAGCACAGAA | 1.15 ratio |
| GCUCCUCUUCCGCACUCAGCCUGGGGACACUGGGCUGCAUUUUUUUUCCAGCUUUCUUUUAAAACUCUCAGUGUAACUGUAUCCCGUGACAUUUCAUUUUUUUUAAAUAGUGUAUUUUUU | 6.29 ratio |
| AGAGCCCAGGACGUUGAUGCUACAAAUCCAAAUUACGAAAUUAUGUGUAUGAUCAGAGACUUCAGAGGGAGCUUGGAUUACAGACCCCUAACAACAGCAGAUCCUAUUGAUGAACAUAGG | 0.326 ratio |
| GACUUUGGAACUGGUCCUCGCAACGCAGCCUUCUAUAGCCCUCAUGGACAUAUAUUAGUGCUGGCUGGAUUUGGAAAUCUUCGAGGACAAAUGGAAGUAUGGGAUGUGAAAAACUACAAG | 0.303 ratio |
| GGUGGGGUGGUCAUUGCCGUUUGAGCUGCUGAUUUUCUUAUGAAUCAUUCAAAACUCUCGCAUAGGGUUGACAAUGUGGGGGGGUGGGGGAUCCAGCUUAUUCUUUUAUUUUCAAGUCCA | 0.69 ratio |
| AAAGAGUGGAUAGAGUGUGCACACGGGAUCGGUGGGACCCGGGCGAAAAAGGAGUGCAAGAUAGAGUAUGAUGAUUUCGUAGAGUGUUUGCUUCGGUACAAAACGAUGAGGCGAAUGCAU | 0.929 ratio |
| AGGAGGAGAUUAAAGGGUGAGAGUGGGGUGGAAGACUGUGUCAUGGCUCUGGAGACAUUGUUUAGUGUCCUGCUUUCUCUGUGCAGACUGAUGGCCCCUUACACGCCCUUUCUGACUGAG | 0.104 ratio |
| ACCAUUUUCGCGGUUCAGGCUUUGUGUGUAGUUCACUCUAUGUAUUAAAUUAUUAUUCUGCUUAGCUUAUAAUAAGGAUAAUUGCAUUUAAAGAGGUUACUGAAUGUUACUCUGAAACUU | 0.441 ratio |
| GCUCUUGGCAAUGUAAUCAGCGCCUUGGGGGACAAGAGCAAGAGAGCCACCCAUGUCCCUUACAGAGACUCUAAGCUAACAAGACUAUUGCAGGAUUCCCUUGGGGGUAACAGCCAAACC | 0.177 ratio |
| AUCCAGUACUCGAAUCACAAAGAACUAAAGACAGAUAAUACAUUAAACCAACGUGCGCAGGCAGUUCUUCAAGCUGUGACAGCGGUCCAGACAGCAAAUACUCCUCUUAGUGGCACCACA | 0.337 ratio |
| UCUGGUCAUACUCGUGCGUAUGGUGUUUGCUUUGUGGACACUUCACUGGGCAAGUUUUUCAUCGGCCAGUUUUCGGAUGACCGCCACUGUUCGAGAUUUAGGACGCUAGUGGCUCACUAU | 0.21 ratio |

Some of these lines once more (set 3):
| Oligonucleotide | E-score |
| --- | --- |
| GTACGGAC | 0.185 |
| CATAGCCG | 0.262 |
| AGGAATAT | -0.0671 |
| CATTTAAG | -0.295 |
